Experimental data from different studies.
Every numbered part comes from another study and shows a few of its results, in no order.

Series 1
Target: PABPC1L2, full length, GST fusion (mouse, UniProt A0ABA7IW68)
Technique: RNAcompete
Molecule type: RNA
Medium: in vitro
Concentration: 20 nM
Setting: 7-mer, probes averaged, single round
Baseline: mean of 7-mers
Reading: higher = stronger binding
Target sequence (chain): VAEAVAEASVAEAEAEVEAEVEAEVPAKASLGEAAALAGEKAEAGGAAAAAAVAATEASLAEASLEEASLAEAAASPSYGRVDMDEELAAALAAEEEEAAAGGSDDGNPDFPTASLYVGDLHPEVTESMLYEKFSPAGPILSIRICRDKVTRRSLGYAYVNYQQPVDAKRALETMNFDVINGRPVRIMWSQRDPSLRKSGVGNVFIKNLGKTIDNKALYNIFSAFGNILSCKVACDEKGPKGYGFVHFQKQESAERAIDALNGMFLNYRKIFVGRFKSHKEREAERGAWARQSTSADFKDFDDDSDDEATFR
Oligonucleotide	7-mer Z-score
GUCUCAC	-0.222
GCGCCAG	-0.231
UUAACCA	-0.112
CGAUUUA	0.209
UGAAUGU	-0.206

Series 2
Cell line: HEK-293T/ACE2
Concentration: concentration not given
Time: 16 (unit not given)
Baseline: vehicle
Structure (SMILES)	viability
COc1cc(C(=O)NS(=O)(=O)c2ccccc2C)ccc1Cc1cn(C)c2ccc(NC(=O)OC3CCCC3)cc12	99.6%
C[C@@H]1C[C@H]2[C@@H]3CCC4=CC(=O)C=C[C@]4(C)[C@@]3(Cl)[C@@H](O)C[C@]2(C)[C@@]1(OC(=O)c1ccco1)C(=O)CCl	104%
N#CC1(c2ccc(NC(=O)c3cccnc3NCc3ccncc3)cc2)CCCC1	81.4%

Series 3
Target: Replicase polyprotein 1ab, main protease (rep, Severe acute respiratory syndrome coronavirus 2, UniProt P0DTD1)
Read-out: enzyme activity
Action: inhibitor
Concentration: 20 µM
Setting: hit confirmation, no DTT
Compound	inhibition [%]
CO/N=C(\C(=O)N[C@@H]1C(=O)N2C(C(=O)O)=C(CSC(=O)c3ccco3)CS[C@H]12)c1csc(N)n1.Cl	73.1
C[n+]1c2cc(N)ccc2cc2ccc(N)cc21.Nc1ccc2cc3ccc(N)cc3nc2c1	68
CC1=C(CC(=O)O)c2cc(F)ccc2/C1=C\c1ccc([S+](C)[O-])cc1 (centres unmarked)	57.3
Oc1cc(CNC(=S)/C=C/c2cc(O)c(O)c(Br)c2)cc(O)c1O	78.1

Series 4
Target: Sal-like protein 4, full length isoform B (SALL4, Homo sapiens, UniProt Q9UJQ4-2, residues 1-616)
Technique: universal PBM
Molecule type: double-stranded DNA, one strand shown
Medium: in vitro
Concentration: not given
Setting: 8-mer, flanks averaged, mean of replicates
Reading: higher = stronger binding
Construct (chain): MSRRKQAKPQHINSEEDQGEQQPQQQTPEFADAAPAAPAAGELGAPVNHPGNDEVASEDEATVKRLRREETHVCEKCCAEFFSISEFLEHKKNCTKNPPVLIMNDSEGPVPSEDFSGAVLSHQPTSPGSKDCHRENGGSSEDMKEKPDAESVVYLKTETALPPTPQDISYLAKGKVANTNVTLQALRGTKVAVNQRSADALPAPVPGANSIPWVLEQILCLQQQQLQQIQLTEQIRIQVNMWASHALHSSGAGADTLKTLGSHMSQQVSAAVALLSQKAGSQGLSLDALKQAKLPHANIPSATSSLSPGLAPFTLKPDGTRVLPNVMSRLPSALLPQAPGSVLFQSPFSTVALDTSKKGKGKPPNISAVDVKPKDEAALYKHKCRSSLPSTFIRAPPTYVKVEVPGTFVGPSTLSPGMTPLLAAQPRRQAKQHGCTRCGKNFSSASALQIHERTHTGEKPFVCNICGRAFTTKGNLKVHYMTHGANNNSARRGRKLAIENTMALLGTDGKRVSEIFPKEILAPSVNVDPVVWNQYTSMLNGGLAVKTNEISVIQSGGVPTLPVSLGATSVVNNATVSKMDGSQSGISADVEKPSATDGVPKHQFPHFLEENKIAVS
Oligonucleotide	E-score
ATCAACGC	0.111
AGATGACT	0.0143
GCCCTAGC	-0.216
TACCCTAA	-0.016
ATCCGTGC	0.0207
CACCTGGG	-0.238
TCGCACCA	0.0215
CCTCGTGA	0.00392

Series 5
Target: Replicase polyprotein 1ab, nsp13 helicase (rep, Severe acute respiratory syndrome coronavirus 2, UniProt P0DTD1)
Action: inhibitor
Concentration: 20 µM
SMILES	inhibition [%]
C[C@H](CCC(=O)O)[C@H]1CC[C@H]2[C@@H]3[C@H](O)C[C@@H]4C[C@H](O)CC[C@]4(C)[C@H]3C[C@H](O)[C@]12C	-1.91
CC(C)NCC(O)c1cc(O)cc(O)c1 (centres unmarked)	3.74
Cc1cccc(C)c1NC(=O)CN1CCN(CCCC(c2ccc(F)cc2)c2ccc(F)cc2)CC1	4.99
O=C(O)C[C@H](O)C[C@H](O)/C=C/c1c(C2CC2)nc2ccccc2c1-c1ccc(F)cc1	1.06
O=C(O)Cc1ccc(OCc2ccccc2)c(Cl)c1	3.6
Nc1ncnc2c1ncn2[C@H]1CC[C@@H](CO)O1	6.08
COc1cccc2c1C(=O)c1c(O)c3c(c(O)c1C2=O)C[C@@](O)(C(=O)CO)C[C@@H]3O[C@H]1C[C@H](N)[C@H](O)[C@H](C)O1	93
C[C@](N)(Cc1ccc(O)c(O)c1)C(=O)O	-2.73
N=C1NC(=O)N2CC12 (centres unmarked)	4.69
O=C(C(c1ccccc1)c1ccccc1)N1CCN(CC(O)COc2cccc3ncccc23)CC1 (centres unmarked)	2.21
COc1cc(C)c2c(Oc3cccc(C(F)(F)F)c3)c(OC)cc(NC(C)CCCN)c2n1 (centres unmarked)	9.09
Cn1cnc2c(F)c(Nc3ccc(Br)cc3F)c(C(=O)NOCCO)cc21	2.9
COc1ccc(CN(C(=O)[C@@H](N)Cc2c(C)cc(C(N)=O)cc2C)[C@@H](C)c2ncc(-c3ccccc3)[nH]2)cc1C(=O)O	-2.24
O=c1cc(N2CCOCC2)oc2c1ccc1ccccc12	-2.81
COc1ccc(C[C@@H](C)[C@@H](C)Cc2ccc(OC)c(OC)c2)cc1OC	3.99
COC(=O)N(C)c1c(N)nc(-c2nn(Cc3ccccc3F)c3ncccc23)nc1N	2.65
Cc1c(C)c2c(c(C)c1O)CCC(C)(C(=O)O)O2 (centres unmarked)	2.01
CCCc1nc(C(C)(C)O)c(C(=O)O)n1Cc1ccc(-c2ccccc2-c2nnn[nH]2)cc1	-1.77
NC(=NCCCCCCN=C(N)/N=C(\N)Nc1ccc(Cl)cc1)/N=C(\N)Nc1ccc(Cl)cc1	4.56
Cc1nnc(NS(=O)(=O)c2ccc(N)cc2)s1	0.86
O=C(CN1CCNCC1)NC1CCCCC1	6.22
CC(C)=CCC[C@](C)(O)[C@H]1CC[C@]2(C)[C@@H]1[C@H](O)C[C@@H]1[C@@]3(C)CC[C@H](O)C(C)(C)[C@@H]3[C@@H](O)C[C@]12C	2.94
C[C@@H]1CN(Cc2ncccn2)C[C@H]1c1nc2c(cnn2C2CCOCC2)c(=O)[nH]1	4.65
NS(=O)(=O)Nc1ncnc(OCCOc2ncc(Br)cn2)c1-c1ccc(Br)cc1	-1.59
Cc1c(N)c(=O)n(-c2ccccc2)n1C	1.3

Series 6
Target: Ras GTPase-activating protein-binding protein 1, full length (G3BP1, Homo sapiens, UniProt Q13283)
Chain of UniProt Q13283 (whole entry, looked up): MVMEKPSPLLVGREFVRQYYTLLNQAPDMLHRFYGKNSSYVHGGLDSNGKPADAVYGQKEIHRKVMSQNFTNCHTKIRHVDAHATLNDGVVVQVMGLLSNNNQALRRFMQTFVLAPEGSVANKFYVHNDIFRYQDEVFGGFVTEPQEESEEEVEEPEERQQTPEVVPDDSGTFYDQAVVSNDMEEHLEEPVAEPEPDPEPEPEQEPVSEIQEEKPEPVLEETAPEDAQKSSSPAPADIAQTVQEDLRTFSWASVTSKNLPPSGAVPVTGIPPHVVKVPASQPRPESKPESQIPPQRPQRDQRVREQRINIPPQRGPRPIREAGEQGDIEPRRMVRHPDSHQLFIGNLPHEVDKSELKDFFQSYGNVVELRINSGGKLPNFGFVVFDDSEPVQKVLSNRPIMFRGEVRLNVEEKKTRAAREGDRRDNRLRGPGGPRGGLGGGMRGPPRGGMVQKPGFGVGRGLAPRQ
Technique: RNA Bind-n-Seq
Molecule type: RNA
Medium: in vitro
Concentration: 200 nM
Setting: whole 134-nt RNA, ends assumed
With: 150 mM LiCl
Baseline: input library
Reading: higher = stronger binding
Library: 7-deaza-guanosine replaces G
Oligonucleotide	log2 enrichment
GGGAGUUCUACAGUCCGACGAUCUCCUCAAGUCCUGUGCUACACAUCGUAUGUACCGAAUCGGCGGCGGGCGGGAAAGUAUUAUGUUACGCCGUUCGGAUCUGCACUUCCAGCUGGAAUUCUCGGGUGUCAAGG	1.11
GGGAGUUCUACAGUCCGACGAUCCUCAAGUCCUGUGCUACACAUCGUAUGUACCGAAUCGGUGGAGGAAAAAAAGGAAAGUAUUAUGUUACGCCGUUCGGAUCUGCACUUCCAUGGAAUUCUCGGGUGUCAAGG	-0.27
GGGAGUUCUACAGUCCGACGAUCCAAGUCCUGUGCUACACAUCGUAUGUACCGAAUCGGGGAAAGGGAAAGGGAAAGGGAAAGUAUUAUGUUACGCCGUUCGGAUCUGCACUUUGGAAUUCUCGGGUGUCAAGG	-0.6
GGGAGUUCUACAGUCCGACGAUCUGGGAGGUGGAUUUUGUUUAUUUUUUUAGCUCAUUUCCAGGGGUGGGAAUUUUUCUUUAAUAUGUGUCAUGAAUAAAGUUGUUUUUGAAAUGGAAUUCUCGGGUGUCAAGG	-0.88
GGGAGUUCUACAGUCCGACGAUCCCUCAAGUCCUGUGCUACACAUCGUAUGUACCGAAUCGGGGCGGCGGGGCGGAAAGUAUUAUGUUACGCCGUUCGGAUCUGCACUUCCAGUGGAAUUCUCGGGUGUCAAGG	-0.0353
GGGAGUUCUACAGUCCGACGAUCGUCCUGUGCUACACAUCGUAUGUACCGAAUCGGGGAAAGGGGAAAAAAAGGGGUGGGGAAAGUAUUAUGUUACGCCGUUCGGAUCUGCACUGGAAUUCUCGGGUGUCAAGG	-0.57
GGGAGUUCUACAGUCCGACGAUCAGUCCUGUGCUACACAUCGUAUGUACCGAAUCGGGGAAAGGGGAGGGGAAAAAGGGGAAAGUAUUAUGUUACGCCGUUCGGAUCUGCACUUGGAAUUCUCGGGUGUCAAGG	0.499
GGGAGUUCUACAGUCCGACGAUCUCAAGUCCUGUGCUACACAUCGUAUGUACCGAAUCGGGGCCGGGCCGGGGCCGGGAAAGUAUUAUGUUACGCCGUUCGGAUCUGCACUUCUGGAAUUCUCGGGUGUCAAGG	0.058

Excerpt of the above (series 5):
SMILES	inhibition [%]
CCCc1nc(C(C)(C)O)c(C(=O)O)n1Cc1ccc(-c2ccccc2-c2nnn[nH]2)cc1	-1.77
NC(=NCCCCCCN=C(N)/N=C(\N)Nc1ccc(Cl)cc1)/N=C(\N)Nc1ccc(Cl)cc1	4.56
Cc1nnc(NS(=O)(=O)c2ccc(N)cc2)s1	0.86
O=C(CN1CCNCC1)NC1CCCCC1	6.22
CC(C)=CCC[C@](C)(O)[C@H]1CC[C@]2(C)[C@@H]1[C@H](O)C[C@@H]1[C@@]3(C)CC[C@H](O)C(C)(C)[C@@H]3[C@@H](O)C[C@]12C	2.94
